# Assay results gathered from unrelated publications.
# Lines come from different studies, so protocols differ. Values joined by “and” are separate records of one study, mostly repeats; a detail may differ.
# TDP1: Tyrosyl-DNA phosphodiesterase 1 (TDP1, Homo sapiens, UniProt Q9NUW8)
# Chain of UniProt Q9NUW8 (whole entry, looked up): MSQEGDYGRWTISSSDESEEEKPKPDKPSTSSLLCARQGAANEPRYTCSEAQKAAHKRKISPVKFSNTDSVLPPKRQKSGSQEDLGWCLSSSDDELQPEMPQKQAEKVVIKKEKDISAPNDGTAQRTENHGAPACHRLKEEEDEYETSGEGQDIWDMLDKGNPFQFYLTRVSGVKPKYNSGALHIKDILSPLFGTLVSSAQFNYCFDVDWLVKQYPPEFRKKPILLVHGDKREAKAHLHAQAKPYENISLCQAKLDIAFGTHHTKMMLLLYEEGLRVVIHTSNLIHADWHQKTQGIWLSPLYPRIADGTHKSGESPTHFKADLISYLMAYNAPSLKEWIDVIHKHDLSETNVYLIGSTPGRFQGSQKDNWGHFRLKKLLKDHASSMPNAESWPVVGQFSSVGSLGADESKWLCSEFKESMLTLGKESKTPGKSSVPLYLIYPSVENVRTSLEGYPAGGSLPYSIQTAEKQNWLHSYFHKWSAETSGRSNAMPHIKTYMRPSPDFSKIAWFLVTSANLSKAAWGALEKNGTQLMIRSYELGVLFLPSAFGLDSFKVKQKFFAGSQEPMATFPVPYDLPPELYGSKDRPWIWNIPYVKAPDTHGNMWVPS
Compound,target or system,test,test system,setting,how to read,endpoint,result
Cc1cnc2nc1Nc1cccc(c1)COC/C=C/COCc1cc(ccc1OCCN1CCOCC1)N2,,,"BALB/c mice, rhEPO-induced polycythemia","75 mg/kg, day 3",,body weight,18.4 g and 18.9 g and 20.8 g and 19.4 g and 18.6 g and 17.3 g
CCCCN1C(=O)c2cccc3c(NCCCN4CCOCC4)ccc(c23)C1=O,,,toluene,,,emission maximum,494 nm
O=C(O)c1ccc(Nc2c(-c3ccccc3)nc3ccc(CON=Cc4ccc5[nH]ccc5c4)cn23)cc1 (mixture of isomers),TDP1,"enzyme activity, inhibitor",,"100 µM, unpurified compound",,inhibition,37.6%
CC[C@H](C)[C@@H]1NC(=O)[C@H](Cc2ccc(O)cc2)NC(=O)CSC[C@@H](C(N)=O)NC(=O)[C@H](CC(N)=O)NC(=O)[C@H](Cc2c[nH]cn2)NC(=O)[C@H](Cc2ccc(O)cc2)NC(=O)[C@H](CC(=O)O)NC(=O)[C@H](Cc2ccc(F)cc2)NC(=O)[C@H](CC(C)C)NC(=O)[C@H](CCCNC(=N)N)NC1=O,,PAMPA,,"200 µM, 5 h, pH 7.4",,membrane retention,< 0.01%
CN([O-])C(=O)CN1CCN(CC(=O)N(C)[O-])CCN(Cc2ccccn2)CC1.[89Zr+4],,,"mouse, liver","intravenous, 1 h",,tracer uptake,0.85 %ID/g
C=C(NC(=O)c1csc(-c2nc3c(cc2O)-c2nc(cs2)C(=O)NC(C(C)O)C(=O)NC(=C(C)OC)c2nc(cs2)C(=O)NC2c4nc(cs4)C(=O)NC(COC(=O)c4c5c6c(cccc6n4O)COC(=O)C(OC4CC(C)(O)C(N(C)C)C(C)O4)C2OC5)c2nc-3cs2)n1)C(N)=O (stereo not shown),,,"ICR mice, Streptococcus pneumoniae ATCC 49169 infected, immunocompromised, blood","intravenous, 16 mg/kg/day twice daily",,AUC(0-inf),1330 ng·h/mL
CCCCN1C(=O)c2cccc3c(NCCN4CCOCC4)ccc(c23)C1=O,,,ethyl acetate,,,emission maximum,512 nm
C=C[C@]1(C)C[C@@H](OC(=O)CSc2ccc(NC(=O)c3ccco3)cc2)[C@]2(C)[C@H](C)CC[C@]3(CCC(=O)[C@H]32)[C@@H](C)[C@@H]1O,,,"Mycoplasma gallisepticum-infected chickens, plasma","intramuscular, 5 mg/kg, 6 h",,plasma concentration,64.6 ng/mL and 19.7 ng/mL and 62.5 ng/mL and 43.8 ng/mL and 26 ng/mL and 78.1 ng/mL and 75 ng/mL and 21.6 ng/mL
O=C(Nc1cnccc1-c1ccc([18F])cc1)c1ccnc(NC(=O)C2CC2)c1,,,"FVB/NJ mice, both sexes, brain","intravenous, 15 min, median, P-gp inhibitor pretreatment, together with: tariquidar 15 mg/kg iv",,SUV,0.47
O=C(O)c1ccc(Nc2c(-c3ccccc3)nc3ccc(CON=Cc4cc5c(cc4[N+](=O)[O-])OCCO5)cn23)cc1 (mixture of isomers),TDP1,"enzyme activity, inhibitor",,"100 µM, unpurified compound",,inhibition,-1.1%
CN(C)C(=O)c1cccc(N2Cc3cn(Cc4ccc(F)c(F)c4)nc3C2)c1,,metabolic stability,"rat, liver microsomes",,,half-life,48 min
COc1cccc(OC)c1-c1cc(C(=O)NC2(C(=O)O)C3CC4CC(C3)CC2C4)nn1-c1ccc(C(=O)N(C)CCCN(C)C(=O)[C@H](CCCCNC(=O)[C@H](CC(C)C)NC(=O)C2OC2C(=O)O)NC(=O)CN2CCN(CC(=O)[O-])CCN(CC(=O)[O-])CCN(CC(=O)[O-])CC2)cc1C(C)C.[177Lu+3] (mixture of isomers),,,mouse HT-29 xenograft,"4 h, biodistribution",reference: tumour over spleen,tumour-to-spleen ratio,9.05
CC(C)(O)c1ncc([S@](N)(=O)=NC(=O)Nc2c3c(cc4c2CCC4)CCC3)s1,,refers to: nervous system disorders,healthy human volunteers,"oral, 50 mg twice daily, 14 days, enteric-coated tablet",,subjects with adverse events,29%

# Repeated from above:
Compound,target or system,test,test system,setting,how to read,endpoint,result
CN(C)C(=O)c1cccc(N2Cc3cn(Cc4ccc(F)c(F)c4)nc3C2)c1,,metabolic stability,"rat, liver microsomes",,,half-life,48 min
COc1cccc(OC)c1-c1cc(C(=O)NC2(C(=O)O)C3CC4CC(C3)CC2C4)nn1-c1ccc(C(=O)N(C)CCCN(C)C(=O)[C@H](CCCCNC(=O)[C@H](CC(C)C)NC(=O)C2OC2C(=O)O)NC(=O)CN2CCN(CC(=O)[O-])CCN(CC(=O)[O-])CCN(CC(=O)[O-])CC2)cc1C(C)C.[177Lu+3] (mixture of isomers),,,mouse HT-29 xenograft,"4 h, biodistribution",reference: tumour over spleen,tumour-to-spleen ratio,9.05
